Published values gathered from unrelated publications.
Protocols differ between the studies behind these lines. “And” joins repeats or separate records; there may be more than shown.

SMILES	tested on	test	test system	setting	how to read	measurement	value
CCOc1cncc(-c2ccc(NC(=O)C3(c4ccnc(NS(=O)(=O)C5CC5)n4)CCOCC3)nc2)n1	lung cancer	cell viability, CellTiter-Glo	DMSO 0.1%	72 h, line code 1121	–	IC50	40 nM
CO[C@@H]1[C@@H](OC(N)=O)[C@@H](O)[C@H](Oc2ccc3c(O)c(NC(=O)c4ccc(O)c(CC=C(C)C)c4)c(=O)oc3c2C)OC1(C)C	HCT-116 BRCA2 wild-type	–	–	200 µM, replicate B	reference: untreated	colony survival	43.2%
Cc1ncsc1-c1ccc(C(C)NC(=O)C2CC(O)CN2C(=O)C(NC(=O)CCCCCCCCCCN2CCCC(Nc3ncc(Cl)c(Nc4ccccc4S(=O)(=O)C(C)C)n3)C2)C(C)(C)C)cc1 (stereo not shown)	22Rv1	RNA-seq, refers to: TOMM40L mRNA	–	concentration not given	reference: DMSO	log2 fold change	-1.25
CC(C)c1ccc(N(C)c2ccc3c(c2)OCC[C@H]3CNc2cnccc2C(=O)O)cc1	NCI-H661	cell viability, CellTiter-Glo	–	7 days	–	IC50	9.73 nM
CNS(=O)(=O)Nc1nccc(Cc2c(C)c3ccc(Oc4ncccc4F)cc3oc2=O)c1F	KARPAS-299	cell viability	–	7 days	–	IC50	> 1000 nM
CCN(Cc1ccc(C#CCCO)cc1)CC1CCCN(CCc2cccc(F)c2)C1 (stereo not shown)	Trypanosoma cruzi	reporter mRNA translation, inhibitor, refers to: Renilla luciferase mRNA	cell-free extract	concentration not given, test 2	reference: positive over negative control	translation activity	104% and 102%
Cn1ncc2cc(-c3cncc(Cl)c3N3CCC4(CCNC4=O)CC3)ccc21	LS174T	gene expression, microarray, refers to: CNN1 mRNA	–	concentration not given, 4 h	reference: untreated cells	log2 fold change	1.36
CC1CCC(C(C)C)C(OC(=O)Cn2c(-c3ccc(Br)cc3)[n+](C)c3ccccc32)C1.[Cl-] (stereo not shown)	Trypanosoma cruzi	reporter mRNA translation, inhibitor, refers to: Renilla luciferase mRNA	cell-free extract	concentration not given, test 2	reference: positive over negative control	translation activity	80.6% and 87.3%
CCN(CC)CC(=O)Nc1cccc(-n2cc(-c3ccc4ccc(-c5cn(-c6cccc(NC(=O)CN(CC)CC)c6)nn5)cc4c3)nn2)c1	RCC4	PCR angiogenesis array, refers to: ANGPT1	–	5 x IC50, 4 h, normoxia	reference: untreated	fold regulation	-1.06
CN1CCCNC(=O)c2cccc(c2)C(=O)NCCCN(C)CCCNc2cccc3c2C(=O)c2cccc(c2C3=O)NCCC1	SAS	RNA-Seq, refers to: LDB3 mRNA	–	1 µM, 6 h	reference: untreated cells	log2 fold change	3.25

Excerpt of the above:
SMILES	tested on	test	test system	setting	how to read	measurement	value
Cc1ncsc1-c1ccc(C(C)NC(=O)C2CC(O)CN2C(=O)C(NC(=O)CCCCCCCCCCN2CCCC(Nc3ncc(Cl)c(Nc4ccccc4S(=O)(=O)C(C)C)n3)C2)C(C)(C)C)cc1 (stereo not shown)	22Rv1	RNA-seq, refers to: TOMM40L mRNA	–	concentration not given	reference: DMSO	log2 fold change	-1.25
